# Published values of several laboratories.
# Each numbered part is a random draw from the data of one study; scales do not carry over between parts.

# Block 1
# Target: Sal-like protein 4, full length isoform A (SALL4, Homo sapiens, UniProt Q9UJQ4, residues 1-1053)
# Sequence of UniProt Q9UJQ4 (whole entry, looked up): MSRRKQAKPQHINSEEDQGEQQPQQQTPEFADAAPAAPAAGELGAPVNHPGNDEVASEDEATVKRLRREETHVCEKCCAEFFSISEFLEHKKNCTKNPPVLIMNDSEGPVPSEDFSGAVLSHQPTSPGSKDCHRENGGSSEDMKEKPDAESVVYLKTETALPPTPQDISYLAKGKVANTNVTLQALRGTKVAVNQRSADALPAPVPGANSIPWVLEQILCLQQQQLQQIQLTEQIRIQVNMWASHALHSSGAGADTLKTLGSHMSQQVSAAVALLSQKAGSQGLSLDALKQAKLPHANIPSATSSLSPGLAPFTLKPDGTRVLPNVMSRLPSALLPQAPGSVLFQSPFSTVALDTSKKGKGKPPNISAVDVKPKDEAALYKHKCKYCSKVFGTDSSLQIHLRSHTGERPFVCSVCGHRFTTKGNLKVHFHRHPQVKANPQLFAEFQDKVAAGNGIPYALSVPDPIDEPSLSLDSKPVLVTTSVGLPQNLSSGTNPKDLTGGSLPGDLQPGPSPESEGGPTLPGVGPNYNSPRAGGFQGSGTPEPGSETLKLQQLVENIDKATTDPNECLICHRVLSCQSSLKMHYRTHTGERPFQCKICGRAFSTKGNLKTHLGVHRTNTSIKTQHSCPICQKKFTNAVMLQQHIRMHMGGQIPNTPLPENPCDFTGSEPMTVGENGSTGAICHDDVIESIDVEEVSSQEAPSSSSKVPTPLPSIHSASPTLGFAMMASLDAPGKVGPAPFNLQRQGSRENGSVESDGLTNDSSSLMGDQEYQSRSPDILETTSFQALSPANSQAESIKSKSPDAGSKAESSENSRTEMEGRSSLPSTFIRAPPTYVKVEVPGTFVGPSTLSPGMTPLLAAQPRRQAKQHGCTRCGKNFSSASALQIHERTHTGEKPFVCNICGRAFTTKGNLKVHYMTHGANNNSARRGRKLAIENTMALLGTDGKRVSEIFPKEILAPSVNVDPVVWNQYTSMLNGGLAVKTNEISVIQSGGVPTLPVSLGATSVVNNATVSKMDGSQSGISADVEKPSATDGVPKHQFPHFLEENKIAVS
# Method: universal PBM
# Form: double-stranded DNA, one strand shown
# Sample: in vitro
# Tested at: 600 nM
# Setting: 8-mer, flanks averaged, mean of replicates
# Direction: higher = stronger binding
Oligonucleotide,E-score
GTGGGCCA,-0.11
GGTTTAAC,0.0708
AGATCGTC,-0.137
ACTGTCGA,-0.0394
ACTGCGTC,-0.0849
AGACGACA,-0.0251
GCACGAGC,-0.282
AGTGAGCC,-0.18
AAACGTAG,0.0208
ATCTTATG,0.185

# Block 2
# Target: Interferon regulatory factor 7, full length, phosphomimetic (IRF7, Homo sapiens, UniProt Q92985, residues 1-503, S471D/S472D/S475D/S476D/S477D/S483D/S484D/S487D)
# Sequence of UniProt Q92985 (whole entry, unmodified, looked up): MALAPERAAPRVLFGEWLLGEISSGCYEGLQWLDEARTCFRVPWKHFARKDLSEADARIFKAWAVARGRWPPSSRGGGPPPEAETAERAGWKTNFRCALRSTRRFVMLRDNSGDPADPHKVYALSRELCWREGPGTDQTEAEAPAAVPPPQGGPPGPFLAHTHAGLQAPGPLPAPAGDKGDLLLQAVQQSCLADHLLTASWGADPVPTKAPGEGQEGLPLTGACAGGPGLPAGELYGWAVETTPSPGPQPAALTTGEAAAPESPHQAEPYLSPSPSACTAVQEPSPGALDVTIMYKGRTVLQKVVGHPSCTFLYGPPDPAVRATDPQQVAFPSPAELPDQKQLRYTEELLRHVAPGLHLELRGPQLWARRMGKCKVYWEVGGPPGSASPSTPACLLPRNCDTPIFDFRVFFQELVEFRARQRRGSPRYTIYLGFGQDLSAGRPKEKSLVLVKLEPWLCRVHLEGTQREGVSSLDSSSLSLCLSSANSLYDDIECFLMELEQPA
# Method: protein-binding microarray
# Form: double-stranded DNA, one strand shown
# Sample: in vitro
# Tested at: 2200 nM top
# Setting: 60-bp whole probe
# Together with: salmon DNA 0.4 mg/ml
# Baseline: random background probes
# Direction: higher = stronger binding
# Constant ends, left off below: GCCTAGCAC … GTCTTGATTCGCTTGACGCTGCTG
Oligonucleotide,fitted relative affinity [z-score]
GACGGTATCCACTATCGGGACGTGCTA,0.326
TATGTTCACTATTTAAGGCCGTGCTAG,0.894
GACGCACTGAGACTGGAGACGTGCTAG,0.089
GAAGAACTGAGACTGGAGACGTGCTAG,-0.789
TCAAGTTTCTCTTTCCTACTGTGCTAG,6.51
GACGGATTCGGTTCCGGGACGTGCTAG,3.46
GACGATTTCGGGTATCAAGACGTGCTA,2.46
GACGGTTTCCTTCTCCAGACGTGCTAG,2.89

# Block 3
# Target: Ras GTPase-activating protein-binding protein 1, C-terminal RGG region (G3BP1, Homo sapiens, UniProt Q13283)
# Sequence of UniProt Q13283 (whole entry, looked up): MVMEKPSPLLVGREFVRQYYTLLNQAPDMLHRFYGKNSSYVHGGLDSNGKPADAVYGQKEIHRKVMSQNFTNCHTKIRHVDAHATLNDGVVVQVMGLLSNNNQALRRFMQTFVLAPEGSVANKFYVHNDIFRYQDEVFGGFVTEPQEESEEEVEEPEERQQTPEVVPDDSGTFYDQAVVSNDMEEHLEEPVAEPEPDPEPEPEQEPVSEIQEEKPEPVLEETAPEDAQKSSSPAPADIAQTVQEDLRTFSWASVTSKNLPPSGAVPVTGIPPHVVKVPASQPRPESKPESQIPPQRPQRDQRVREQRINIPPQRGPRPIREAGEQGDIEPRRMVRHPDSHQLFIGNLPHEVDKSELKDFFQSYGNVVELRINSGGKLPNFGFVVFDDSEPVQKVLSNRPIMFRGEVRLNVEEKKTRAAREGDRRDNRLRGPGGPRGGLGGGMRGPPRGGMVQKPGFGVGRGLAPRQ
# Method: RNA Bind-n-Seq
# Form: RNA
# Sample: in vitro
# Tested at: 1 µM
# Setting: whole 134-nt RNA, ends assumed
# Together with: 150 mM KCl
# Baseline: input library
# Direction: higher = stronger binding
# Constant ends, left off below: GGGAGUUCUACAGUCCGACGAUC … UGGAAUUCUCGGGUGUCAAGG
Oligonucleotide,log2 enrichment
UGGGAGGUGGAUUUUGUUUAUUUUUUUAGCUCAUUUCCAGGCGUGGGAAUUUUUUUUUAAUAUGUGUCAUGAAUAAAGUUGUUUUUGAAA,3.08
UGUGCUACACAUCGUAUGUACCGAAUCGGGGAAAAAAAGGGGAAAAAGGGGUUUUUUUGGGGAAAGUAUUAUGUUACGCCGUUCGGAUCU,0.931
UGGGAGGUGGAUUUUGUUUAUUUUUUUAGCUCAUUUCCAGGGGUGGGAAUUUUUUUUUAAUAUGUGUCAGGAAUAAAGUUGUUUUUGAAA,3.51
UAACUUUAGAGGAGGAUCUGAUGGAUAUGGCAGUGGACGUGGAUUUGGGGAUGGCUAUAAUGGGUAUGGCGGAGGACCUGGAGGUGGCAA,-1.03
UGGCCCUGGUGGCAUGCGGGGAGGAAGAGGUGGCCUCAUGGAUCAUGGUGGUCCCGGUGGAAUGUUCAGAGGUGGCCGUGGUGGAGACAG,2.62
AAGUCCUGUGCUACACAUCGUAUGUACCGAAUCGGGCCCCGGCCCCGGGGCCCCGGAAAGUAUUAUGUUACGCCGUUCGGAUCUGCACUU,-2.33
UAACUUUAGAGGAGGAUCUGAUGGAUAUGGCAGUGGACGUGGAUUUGGGGAUGGCUAUAAUGGGUAUGGAGGAGGACCUGGAGGGGGCAA,-0.596

# Single results of other studies
Molecule,target,assay,system,setting,scale,measurement,result
"PhoQ, residues 284 288 289 292 302 303 SMMNNA","PhoP, residues 12 14 15 18 19 VQALL (Escherichia coli, UniProt P23836)","Sort-seq, item: YFP reporter",E. coli,"PhoQ-PhoP variant library, together with: 10 µM Mg2+","baseline: high Mg2+ state, higher = stronger signaling",fold induction,6.25
